Published values from different studies.
Protocols differ between the studies behind these lines. Values joined by “and” are separate records of one study, mostly repeats; a detail may differ. Numbers after ± are the reported error.

| SMILES | target or system | assay | test system | conditions | scale | measurement | value |
| --- | --- | --- | --- | --- | --- | --- | --- |
| COc1ccc(CNC[C@@](O)(COCc2ccccc2)[C@@H]2CC[C@@H](C)C[C@H]2OCc2ccccc2)cc1 | MDA-MB-231 | cell growth or viability, MTT |  | 30 µM, 72 h |  | inhibition | 96.6% |
| COc1cccc(OC)c1-c1cc(C(=O)NC2(C(=O)O)C3CC4CC(C3)CC2C4)nn1-c1ccc(C(=O)N(C)CCCN(C)CCCN(C)C(=O)[C@H](CCCCNC(=O)[C@H](CC(C)C)NC(=O)C2OC2C(=O)O)NC(=O)CN2CCN(CC(=O)[O-])CCN(CC(=O)[O-])CCN(CC(=O)[O-])CC2)cc1C(C)C.[177Lu+3] (mixture of isomers) | HT-29 | SDS-PAGE autoradiography |  | concentration not given, 4 h | relative to: radioactive signal | adduct formation | 52.7% |
| CC(=O)OC[C@H]1O[C@@H](n2cc(CSc3nc4ccccc4n3Cc3cn([C@@H]4O[C@H](COC(C)=O)[C@@H](OC(C)=O)C(OC(C)=O)[C@H]4OC(C)=O)nn3)nn2)[C@H](OC(C)=O)C(OC(C)=O)[C@@H]1OC(C)=O (stereo in doubt) | MDA-MB-231 | MTT |  | 15.6 ppm |  | cytotoxicity | 82.2% |
| Cc1ncsc1-c1ccc(C(C)NC(=O)C2CC(O)CN2C(=O)C(NC(=O)CCCCCCCCCCN2CCCC(Nc3ncc(Cl)c(Nc4ccccc4S(=O)(=O)C(C)C)n3)C2)C(C)(C)C)cc1 (centres unmarked) | 22Rv1 | RNA-seq, refers to: PEX12 mRNA |  | concentration not given | relative to: DMSO | log2 fold change | -1.5 |
| C=C1CC2(C(=O)OC)C=C(C(=O)OC(C)(C)C)C(=O)C1C2 (centres unmarked) | AP-1 reporter HEK293 | AP-1 reporter gene, luciferase reporter |  | 1 µM, 6 h, together with: PMA 6 ng/mL | relative to: PMA alone | luminescence relative to PMA | 0.889 |
| COc1ccc(C([O-])=CC(=O)c2ccc(C(C)(C)C)cc2)cc1.[Ru+2].c1ccc(-c2cccc(-c3ccccn3)n2)nc1.c1cnccn1 | MIA PaCa-2 |  |  |  | relative to: dark IC50 over light IC50 | phototoxicity index | 3.4 |
| O=C(NCCCSc1ccc2c(/C=C/c3ccccn3)n[nH]c2c1)c1ccc(Cl)c(C(F)(F)F)c1 | Ba/F3 TEL-VEGFR1 | cell growth, CCK-8 |  |  |  | GI50 | 350 nM |
| Oc1cccc(-c2cccc(O)n2)n1.[Cl-].[Cl-].[Ru+2].c1ccc(-c2ccnc3c2ccc2c(-c4ccccc4)ccnc23)cc1.c1ccc(-c2ccnc3c2ccc2c(-c4ccccc4)ccnc23)cc1 | MCF-10A | CCK-8 viability |  | white light 2 h |  | EC50 | 30 nM |
| O=C1CC[C@H](N2Cc3cc(-c4ccn5ncc(Cl)c5n4)ccc3C2=O)C(=O)N1 | MOLM-13 | mRNA level, RNA-seq, refers to: TRIB3 |  | 200 nM, 24 h | relative to: DMSO | log2 fold change | -3.31 |
| CCN(CC)CC(=O)Nc1cccc(-n2cc(-c3ccc4ccc(-c5cn(-c6cccc(NC(=O)CN(CC)CC)c6)nn5)cc4c3)nn2)c1 | RCC4 | PCR angiogenesis array, refers to: PF4 |  | 5 x IC50, 2 h, normoxia | relative to: untreated | fold regulation | 1.17 |
| CC(C)(C)c1cc(-c2ccc3cccnc3n2)nc(-c2ccc3cccnc3n2)c1.COc1ccncc1.[Cl-].[Cl-].[Ru+2].c1ccc2cc3nc4c5cccnc5c5ncccc5c4nc3cc2c1 | A-375 | resazurin |  | together with: light 733 nm, 9 mW, 100 J/cm2 |  | EC50 | 2000 nM |
| COc1ccccc1-c1ccncc1C(=O)Nc1nnc(OCc2ccc(Cl)cc2)s1 | DLD-1 BRCA2 wild-type | immunofluorescence |  | 10 µM, 96 h, >5 foci per nucleus |  | γH2AX foci-positive nuclei | 24.9% and 24% and 25.2% |
| Fc1cncc(-c2ccc3[nH]c4ncnc(N[C@H]5CC[C@H](N6CCOCC6)CC5)c4c3c2)c1 | TMD8 ibrutinib-resistant | immunoblot |  | concentration not given, 24 h |  | c-MYC level | decreased |
| C[n+]1ccc(/C=N/NC(=O)c2cncc(C(=O)N/N=C/c3cc[n+](C)c4ccccc34)n2)c2ccccc21 | MYC promoter parallel G-quadruplex DNA | UV melting |  | 3 µM, 1 mM potassium, together with: DNA 3 µM |  | delta Tm | 13.2 °C |
| CCCCCCCCCCCC(=O)N[C@@H](CO)C[C@@H](O)c1cccc(CCCCCC)c1 | HeLa | CERT activity, HPLC-MS/MS lipidomics |  | 1 µM, 24 h, not cell-number normalised |  | total ceramide level | 62500 pmol/sample and 74100 pmol/sample and 59600 pmol/sample |
| CN(C)c1ccc(-n2cc(COC(=O)[C@@]3(C)C=C(C(=O)OC(C)(C)C)C(=O)CC3)nn2)cc1 | AP-1 reporter HEK293 | AP-1 reporter gene, luciferase reporter |  | 10 µM, 6 h, together with: PMA 6 ng/mL | relative to: PMA alone | luminescence relative to PMA | 0.142 |
| CC(C)(C)c1cc(-c2ccc3cc4ccccc4nc3n2)nc(-c2ccc3cc4ccccc4nc3n2)c1.[Cl-].[Cl-].[Ru+2].c1ccc2cc3nc4c5cccnc5c5ncccc5c4nc3cc2c1 | A-375 | resazurin |  | together with: light 523 nm, 100 J/cm2 | relative to: dark EC50 over light EC50 | phototoxicity index | 3 |
| [177Lu+3].[Cl-].[Cl-].[Cl-] | 4T1 | flow cytometry |  | 0.4 Bq/cell, 48 h |  | dead cells | 27.2% |
| Cc1ccncc1.[Cl-].[Cl-].[Ru+2].c1cc(-c2ccc3cccnc3n2)nc(-c2ccc3cccnc3n2)c1.c1ccc2cc3nc4c5cccnc5c5ncccc5c4nc3cc2c1 | A-375 | cytotoxicity, resazurin |  | dark |  | EC50 | 46300 nM |
| C[n+]1ccc(/C=N/NC(=O)N/N=C/c2cc[n+](C)c3ccccc23)c2ccccc21 | hp2 hairpin duplex DNA | FRET melting |  | 1 µM |  | ΔTm | 1.4 ± 0.6 °C |
| CNS(=O)(=O)Nc1nccc(Cc2c(C)c3ccc(Oc4ncccc4F)cc3oc2=O)c1F | HEC-1B | cell viability |  | 7 days |  | IC50 | 500 nM |
| COC(=O)c1cc(NC2=NC(=O)C(=Cc3ccc(N(C)C)cc3)S2)ccc1OC(C)=O | MCF7 | refers to: CHAF1B mRNA |  | 0.81 µM (IC50), 24 h | relative to: DMSO | fold change | 0.525 |
| CCN(C(=O)c1cc(F)ccc1Oc1nncnc1N1CCC2(C1)CN([C@H](CCCN(C)CCOC)C(C)C)C2)C(C)C | DLD-1 | cell growth or viability |  | 7 days |  | GI50 | > 10000 nM |
| CN1CCCNC(=O)c2cccc(c2)C(=O)NCCCN(C)CCCNc2cccc3c2C(=O)c2cccc(c2C3=O)NCCC1 | SAS | RNA-Seq, refers to: PNN mRNA |  | 5 µM, 6 h | relative to: untreated cells | log2 fold change | -2.06 |
| N#Cc1cccc(/C=C/C(=O)c2ccc(O)cc2)c1 | U-87 MG | refers to: RNF103 |  | concentration not given | relative to: untreated | fold change | 41.3 |
| CC(C)c1ccc(N(C)c2ccc3c(c2)OCC[C@H]3CNc2cnccc2C(=O)O)cc1 | HEP3B217 | cell viability, CellTiter-Glo | liver | 7 days |  | IC50 | 129 nM |
| O=C(NCc1cc(F)cc(F)c1)[C@@]1(O)CCN(c2ccc3[nH]ccc3c2)C1=O | CXF158 | colony formation, soft agar clonogenic | colon tumour |  |  | efficacy | 72% |
| Cn1ncc2cc(-c3cncc(Cl)c3N3CCC4(CCNC4=O)CC3)ccc21 | LS174T | gene expression, microarray, refers to: GZMB mRNA |  | concentration not given, 24 h | relative to: untreated cells | log2 fold change | -2.49 |
| CO[C@@H]1[C@@H](OC(N)=O)[C@@H](O)[C@H](Oc2ccc3c(O)c(NC(=O)c4ccc(O)c(CC=C(C)C)c4)c(=O)oc3c2C)OC1(C)C | DLD-1 parental |  |  | 150 µM, replicate 1 |  | colony count | 0.1 |

A few entries again:
| SMILES | target or system | assay | test system | conditions | scale | measurement | value |
| --- | --- | --- | --- | --- | --- | --- | --- |
| CCN(CC)CC(=O)Nc1cccc(-n2cc(-c3ccc4ccc(-c5cn(-c6cccc(NC(=O)CN(CC)CC)c6)nn5)cc4c3)nn2)c1 | RCC4 | PCR angiogenesis array, refers to: PF4 |  | 5 x IC50, 2 h, normoxia | relative to: untreated | fold regulation | 1.17 |
| CC(C)(C)c1cc(-c2ccc3cccnc3n2)nc(-c2ccc3cccnc3n2)c1.COc1ccncc1.[Cl-].[Cl-].[Ru+2].c1ccc2cc3nc4c5cccnc5c5ncccc5c4nc3cc2c1 | A-375 | resazurin |  | together with: light 733 nm, 9 mW, 100 J/cm2 |  | EC50 | 2000 nM |
| COc1ccccc1-c1ccncc1C(=O)Nc1nnc(OCc2ccc(Cl)cc2)s1 | DLD-1 BRCA2 wild-type | immunofluorescence |  | 10 µM, 96 h, >5 foci per nucleus |  | γH2AX foci-positive nuclei | 24.9% and 24% and 25.2% |
| Fc1cncc(-c2ccc3[nH]c4ncnc(N[C@H]5CC[C@H](N6CCOCC6)CC5)c4c3c2)c1 | TMD8 ibrutinib-resistant | immunoblot |  | concentration not given, 24 h |  | c-MYC level | decreased |
